Published values gathered from unrelated publications.
Every numbered part comes from another study and shows a few of its results, in no order.

Set 1 — method: RNA Bind-n-Seq; form: RNA; matrix: in vitro; tested at: not given; relative to: input RNA pool; reading: higher = stronger binding
Target: RING finger protein unkempt homolog, zinc fingers 1-6, GST-SBP tag (UNK, Homo sapiens, UniProt Q9C0B0, residues 30-357)
UniProt Q9C0B0, sequence (30-357, looked up): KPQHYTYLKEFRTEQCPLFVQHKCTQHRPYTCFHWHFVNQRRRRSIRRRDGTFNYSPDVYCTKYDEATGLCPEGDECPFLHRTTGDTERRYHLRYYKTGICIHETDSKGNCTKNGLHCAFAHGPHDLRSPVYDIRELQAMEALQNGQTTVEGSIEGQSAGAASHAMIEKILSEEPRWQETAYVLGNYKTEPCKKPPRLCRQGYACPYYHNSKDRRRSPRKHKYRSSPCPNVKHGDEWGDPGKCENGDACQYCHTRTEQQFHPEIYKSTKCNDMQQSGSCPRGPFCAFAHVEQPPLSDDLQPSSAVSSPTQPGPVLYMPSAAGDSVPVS
Notes: RNA with constant flanks, human-mouse chimeric sites, ends assumed
`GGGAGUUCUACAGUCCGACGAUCAAAGAGUGGAUAGAGUGUGCACACGGGAUCGGUGGGACCCGGGCGAAAAAGGAGUGCAAGAUAGAGUUCGAUGACUUCGUAGAGUGUUUGCUUCGGUACAAAACGAUGAGGCGAAUGCAUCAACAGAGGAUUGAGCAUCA` gave a bound/input enrichment of 0.387 ratio.
`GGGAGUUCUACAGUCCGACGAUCGCCACCAGAUCCCAGAAACAUGACCCUUGCUGCCUACAAAGAGAAGAUGAAGGAGCUCCCGCUGGUGUCCUUGUUCUGCUCUUGCUUCUUGUCUGAUCCCCUGAAUAAGUCGUCCUACAACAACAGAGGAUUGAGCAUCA` has a bound/input enrichment of 0.226 ratio.
`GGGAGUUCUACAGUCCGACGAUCUACUACUAUGAUGGUGAUAUUGGCAAUUAUUAUUAUGGCCAGGGUCAUCCCAUGAAGCCUCAUAGAAUCCGCAUGACUCAUAACUUGCUGUUAAAUUAUGGUUUAUACCGAAAAAUGGAACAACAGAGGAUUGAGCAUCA` gave a bound/input enrichment of 0.147 ratio.
The bound/input enrichment of `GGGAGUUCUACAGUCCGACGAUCCGGAGCCCUCCUCUCCCACAGGCCCAAGAUAUAACCCACCAGUGCCUUUUGUCUUCCUGUCAGCUCUGUCAAUCACGGCCCUGCCUUGUCCCUCUCACCAAGUGCCCAAAGUGGGGAGGGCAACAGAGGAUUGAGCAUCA` is reported as 0.485 ratio.
For `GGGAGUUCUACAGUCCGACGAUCGCUCCUCUUCCGCACUCAGCCUGGGGACACUGGGCUGGGACCAGAAUCCAGCUUUCUUUUAAAACUCUCAGUGUAACUUCUUUUUCUGACAUUUCAUUUUUUUUAAAUAGUGUAUUUUUUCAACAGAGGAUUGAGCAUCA`, the bound/input enrichment was 4.24 ratio.

Set 2 — method: RNA Bind-n-Seq; form: RNA; matrix: in vitro; tested at: 365 nM; relative to: no-protein control; reading: higher = stronger binding
Target: RNA binding protein fox-1 homolog 2, RRM domain, GST-SBP tag (RBFOX2, Homo sapiens, UniProt O43251-10, residues 100-194)
Notes: natural RNA segment, single round, ends assumed
Residues (chain): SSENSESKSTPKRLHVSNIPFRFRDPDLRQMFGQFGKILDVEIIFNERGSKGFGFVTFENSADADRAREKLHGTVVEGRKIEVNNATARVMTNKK
`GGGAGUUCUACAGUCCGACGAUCCCAGGAGAAGCCAUUAAAAGCCACUGGUUAUUUUAUUUUUCAUCAGGCAAUUUUCGAGGUUUUUAUUUGUUCGGUAUUGUUUUUUUACACUGUGGUACAUAUAAGCAACUUGGAAUUCUCGGGUGCCAA`: “RBNS enrichment (R)” 0.582.
`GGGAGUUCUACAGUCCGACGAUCUUUACAGUGACCUCCAGGCAACUGAAGUCAAGAAUCAGGACUCGGGCUUGCUGCAGGAGGCCCACGUCUGGCCUUUUUCUGUGGGACACUUCUGACCUUGACACUCCGGCUGGAAUUCUCGGGUGCCAA` — result for “RBNS enrichment (R)”: 0.305.
For `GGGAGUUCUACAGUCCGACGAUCCUGAGUGUGGGCUGGAAUUGUUCUGGUGUUGGGAGGGUCAGCUGGGAGUGUCCAUCUUUAGGGAAGAAGCAGACACAGGUGCCUUCAGCUGUCCAGUAUGGAGGAACACUUGGAAUUCUCGGGUGCCAA`, “RBNS enrichment (R)” read 0.857.
`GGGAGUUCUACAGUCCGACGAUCAUAUAUAUUUAAUUUUCUUAAAUUCCCGUUAAACUCUAUUUUAUGGUUUUGAUUUCAGAUUGCAAACAUGUAAAACCUGCAUAGCAGCGAGUUCUCGGUUUUGCCGGUUUUGGAAUUCUCGGGUGCCAA` — result for “RBNS enrichment (R)”: 0.616.
For `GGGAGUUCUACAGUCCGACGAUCAUUAAUAUUCCCAUUUUAUUAAUAAUAUUUAUGUUGGGUCAAGUGUUAGGUCAAUAACACUGUAUUUUAAUGUACUUGAAAAAUGUUUUUAUUUUUGUUUUAUUUUUGACUGGAAUUCUCGGGUGCCAA`, “RBNS enrichment (R)” read 0.49.
For `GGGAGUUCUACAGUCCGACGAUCGGCCCAGCUGGGACUGUGUGCUCCCGGCCUUCUAGCCCCACAGCCCACAGACAUUGGUCUUGAGAGAGCCUUGGCUGUGUAUCAAUUACAAAGCCCUGCCAGCAAGGGGAUGGAAUUCUCGGGUGCCAA`, “RBNS enrichment (R)” read 0.235.

Set 3 — method: protein binding microarray; form: double-stranded DNA, one strand shown; matrix: in vitro; tested at: not given; relative to: not given; reading: higher = stronger binding
Target: Histone acetyltransferase KAT6A, winged helix 2, GST fusion (KAT6A, Homo sapiens, UniProt Q92794, residues 85-181)
Notes: 8-mer, flanks averaged, mean of 2 arrays, mostly near background
Construct (chain): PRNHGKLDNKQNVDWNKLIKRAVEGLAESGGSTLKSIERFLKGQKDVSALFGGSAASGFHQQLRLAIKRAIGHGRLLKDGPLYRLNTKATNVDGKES
`ACAAGCCC` has an E-score of -0.258.
`ACGGAGGA` gave an E-score of -0.137.
`AAGGGAGC` gave an E-score of 0.0236.
For `CTAGTCCA`, the E-score was -0.0563.

Single results of other studies
With `PhoQ, residues 284 288 289 292 302 303 NSMLDC` the fold induction was 17.3 (PhoP, residues 12 14 15 18 19 LHSVQ (Escherichia coli, UniProt P23836); Sort-seq, item: YFP reporter; E. coli; PhoQ-PhoP variant library, together with: 10 µM Mg2+; relative to: high Mg2+ state, higher = stronger signaling).
